{"data": "Measurements gathered from unrelated publications", "note": "Compare with care: the assays were run in different laboratories.", "chain of UniProt P56817 (whole entry, looked up)": "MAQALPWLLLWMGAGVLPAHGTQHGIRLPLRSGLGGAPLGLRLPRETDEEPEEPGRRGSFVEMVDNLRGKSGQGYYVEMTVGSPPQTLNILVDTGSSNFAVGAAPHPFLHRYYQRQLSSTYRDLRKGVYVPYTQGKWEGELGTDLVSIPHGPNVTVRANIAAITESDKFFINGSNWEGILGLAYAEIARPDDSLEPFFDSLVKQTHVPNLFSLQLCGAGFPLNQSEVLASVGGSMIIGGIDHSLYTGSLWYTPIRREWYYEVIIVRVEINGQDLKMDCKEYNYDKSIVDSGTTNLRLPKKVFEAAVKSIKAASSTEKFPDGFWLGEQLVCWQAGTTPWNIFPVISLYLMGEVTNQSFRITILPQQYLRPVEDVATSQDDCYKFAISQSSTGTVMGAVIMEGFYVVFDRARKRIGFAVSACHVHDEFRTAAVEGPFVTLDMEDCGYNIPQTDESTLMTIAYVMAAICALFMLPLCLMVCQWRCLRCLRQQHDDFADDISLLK", "chain of UniProt P17812 (whole entry, looked up)": "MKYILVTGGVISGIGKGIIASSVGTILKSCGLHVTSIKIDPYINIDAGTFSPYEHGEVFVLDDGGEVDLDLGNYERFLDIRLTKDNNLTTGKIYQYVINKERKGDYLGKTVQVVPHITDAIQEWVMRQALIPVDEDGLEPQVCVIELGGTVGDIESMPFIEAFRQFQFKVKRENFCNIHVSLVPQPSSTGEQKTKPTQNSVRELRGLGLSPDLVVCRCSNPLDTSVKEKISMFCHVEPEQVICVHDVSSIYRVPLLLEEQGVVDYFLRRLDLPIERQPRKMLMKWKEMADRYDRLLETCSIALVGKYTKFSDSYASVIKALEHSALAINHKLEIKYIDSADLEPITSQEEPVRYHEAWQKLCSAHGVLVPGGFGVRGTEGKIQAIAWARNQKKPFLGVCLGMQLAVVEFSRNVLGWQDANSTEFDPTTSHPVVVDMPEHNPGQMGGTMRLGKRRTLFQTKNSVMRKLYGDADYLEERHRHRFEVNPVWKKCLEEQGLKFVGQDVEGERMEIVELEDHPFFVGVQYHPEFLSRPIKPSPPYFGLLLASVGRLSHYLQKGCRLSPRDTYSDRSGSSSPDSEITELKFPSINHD"}
{"SMILES": "CN1CCN(S(=O)(=O)c2cc([N+](=O)[O-])ccc2N(CCOS(C)(=O)=O)CCOS(C)(=O)=O)CC1", "system": "NSG mice, sample BE PDX", "conditions": "intraperitoneal, 25 mg/kg weekly x3", "how to read": "reference: treated over vehicle", "measurement": "EFS ratio (T/C)", "result": "> 29.1"}
{"SMILES": "CC[C@H](C)[C@H](NC(=O)[C@H](C)NC(=O)[C@H](CCCCN)NC(=O)[C@H](CC(C)C)NC(=O)[C@H](C)NC(=O)[C@@H](NC(=O)[C@H](Cc1c[nH]cn1)NC(=O)[C@H](CC(C)C)NC(=O)[C@@H](NC(=O)[C@@H](NC(=O)[C@H](CCCCN)NC(=O)[C@H](C)NC(=O)[C@H](C)NC(=O)[C@H](CO)NC(=O)[C@H](CCCCN)NC(=O)[C@H](Cc1ccccc1)NC(=O)[C@@H](NC(=O)[C@H](CCCCN)NC(=O)[C@H](CC(C)C)NC(=O)[C@H](Cc1ccccc1)NC(=O)[C@H](CO)NC(=O)[C@H](CCCCN)NC(=O)[C@H](Cc1c[nH]c2ccccc12)NC(=O)[C@H](CCCCN)NC(C)=O)[C@@H](C)O)[C@@H](C)O)C(C)C)[C@@H](C)O)C(=O)N[C@@H](CO)C(=O)N[C@@H](CO)C(N)=O", "target or system": "Staphylococcus aureus", "system": "MSSA", "conditions": "67 strains", "measurement": "MIC90", "result": "8 µg/mL"}
{"SMILES": "CC[C@H](C)[C@H](NC(=O)[C@H](Cc1ccccc1)NC(=O)[C@H](CCC(=O)O)NC(=O)[C@H](CCCNC(=N)N)NC(=O)[C@H](C)NC(=O)[C@H](C)NC(=O)[C@H](CCC(N)=O)NC(=O)[C@H](CCC(=O)O)NC(=O)[C@H](CCC(=O)O)NC(=O)[C@H](CC(C)C)NC(=O)[C@H](Cc1ccc(O)cc1)NC(=O)[C@H](CO)NC(=O)[C@H](CO)NC(=O)[C@@H](NC(=O)[C@H](CC(=O)O)NC(=O)[C@H](CO)NC(=O)[C@@H](NC(=O)[C@H](Cc1ccccc1)NC(=O)[C@@H](NC(=O)CNC(=O)[C@H](CCC(=O)O)NC(=O)[C@H](C)NC(=O)CCc1c[nH]cn1)[C@@H](C)O)[C@@H](C)O)C(C)C)C(=O)N[C@@H](C)C(=O)N[C@@H](Cc1c[nH]c2ccccc12)C(=O)N[C@@H](CC(C)C)C(=O)N[C@H](C(=O)N[C@@H](CCCNC(=N)N)C(=O)NCC(=O)N[C@@H](CCCNC(=N)N)C(=O)N[C@@H](CCCCNC(=O)COCCOCCNC(=O)COCCOCCNC(=O)CC[C@H](NC(=O)CCCCCCCCCCCCCCCCC(=O)O)C(=O)O)C(=O)NCC(=O)NCC(=O)N[C@@H](CO)C(=O)N[C@@H](CCCCNc1c(NCCCCCN(O)C(=O)CCC(=O)NCCCCCN(O)C(=O)CCC(=O)NCCCCCN(O)C(C)=O)c(=O)c1=O)C(=O)O)C(C)C [zirconium-89 labelled]", "system": "rat, heart", "conditions": "sc, 3 nmol/kg, 72 h, ex vivo", "measurement": "tissue uptake", "result": "0.07 %ID/g"}
{"SMILES": "CCCCC1(CCCC)CN(c2ccccc2)c2cc(SC)c(OCC(=O)N[C@@H](C(=O)NCC(=O)O)c3ccccc3)cc2S(=O)(=O)C1", "assay": "measured: HDL cholesterol", "system": "human, serum", "conditions": "20 mg once daily, day 9", "measurement": "serum HDL-C", "result": "52.6 mg/dL"}
{"SMILES": "Nc1ncnc2c1ncn2[C@@H]1O[C@@H]2COP(=O)(O)O[C@H]3[C@@H](O)[C@H](n4cnc5c(=O)[nH]cnc54)O[C@@H]3COP(=O)(O)O[C@H]2[C@H]1O", "target or system": "West Nile virus", "assay": "RNA sequencing, measured: interferon alpha/beta signaling R-HSA-909733", "system": "HFF-1 cells", "conditions": "concentration not given, upregulated pathway", "how to read": "reference: WNV-infected untreated cells", "measurement": "fold enrichment", "result": 14.4}
{"SMILES": "CO[C@H]1C[C@@H]2CC[C@@H](C)[C@@](O)(O2)C(=O)C(=O)N2CCCC[C@H]2C(=O)O[C@H]([C@H](C)C[C@@H]2CC[C@@H](OC(=O)NCCOCCOCCOCCOCCOCCOCCOCCOCCC(=O)N3CCc4cc(Cn5nc(-c6ccc7oc(N)nc7c6)c6c(N)ncnc65)ccc4C3)[C@H](OC)C2)C[C@@H](O)[C@H](C)/C=C(\\C)[C@@H](O)[C@@H](OC)C(=O)[C@H](C)C[C@H](C)/C=C/C=C/C=C/1C", "assay": "dose-escalation trial", "system": "patients with advanced solid tumours", "conditions": "intravenous, all doses weekly, any grade", "measurement": "fatigue TEAE incidence", "result": "58%"}
{"SMILES": "COc1cc(Nc2ncc(F)c(Nc3ccc4c(n3)NC(=O)C(C)(C)O4)n2)cc(OC)c1OC", "target or system": "Beta-secretase 1 (BACE1, Homo sapiens, UniProt P56817)", "conditions": "β-Secretase", "measurement": "IC50", "result": "> 10 µM"}
{"SMILES": "COc1cc(CCC[P+](c2ccccc2)(c2ccccc2)c2ccccc2)c(OC)c2c1OCO2.[I-]", "target or system": "SN12C", "assay": "SRB", "measurement": "GI50", "result": "-5.59 log M"}
{"SMILES": "COc1cc2c(Oc3ccc4[nH]c(C)cc4c3F)ccnc2cc1OCC1(N)CC1", "system": "paediatric recurrent refractory sarcoma", "conditions": "8 mg/kg", "measurement": "grade 3 Tinnitus", "result": "0%"}
{"SMILES": "CC[C@H](C)[C@@H]1NC(=O)[C@@H]2CCCN2C(=O)[C@H](CC(C)C)NC(=O)[C@H](CC(C)C)NC(=O)CNC(=O)[C@@H](NC(=O)[C@@H](NC(=O)[C@H](CC(=O)O)NC(=O)CNC(=O)[C@@H](NC(=O)[C@H](C)NC(=O)CNC(=O)[C@H](CCCCN)NC(=O)[C@H](CC(C)C)NC(=O)[C@H](CC(C)C)NC(=O)[C@H](CCCCN)NC(=O)CNC(=O)[C@@H](NC(=O)[C@@H](N)CC(C)C)C(C)C)C(C)C)C(C)C)CSSC[C@@H](C(=O)O)NC1=O", "assay": "RNA-seq, measured: Gpr141", "system": "mouse, traumatic brain injury model, frontal cortex and hippocampus", "conditions": "dose not given", "how to read": "reference: TBI alone", "measurement": "log2 fold change", "result": -3.25}
{"SMILES": "C[C@H](C(=O)N[C@H]1COc2ccccc2[C@@H]1S(C)(=O)=O)c1ccc(F)cc1", "target or system": "L-type calcium channel, rat, Phenylalkylamine site", "assay": "binding", "conditions": "10 µM, Eurofins selectivity panel", "measurement": "inhibition", "result": "0%"}
{"SMILES": "CS(=O)(=O)CCCn1c(Cn2c(=O)n(CC(F)(F)F)c3ccncc32)cc2cc(Cl)ccc21", "target or system": "respiratory syncytial virus", "assay": "RT-qPCR", "system": "hospitalized infants 1-24 months, nasal swab", "conditions": "oral, 9, 6 or 5 mg/kg daily, day 28, high dose by age cohort", "how to read": "reference: placebo", "measurement": "LS mean difference vs placebo", "result": "0.34 log10 copies/mL"}
{"SMILES": "C[C@H]1CN(c2n[nH]c3nc(N[C@H]4CC[C@H](NS(=O)(=O)CCC(F)(F)F)CC4)ncc23)CCO1", "target or system": "CTP synthase 1 (Homo sapiens, UniProt P17812)", "assay": "Kinobeads competition, measured: CTPS", "conditions": "0.8 µM, unit not given", "how to read": "reference: vehicle", "measurement": "remaining binding", "result": 1.34}
{"SMILES": "COc1c(CCC[P+](c2ccccc2)(c2ccccc2)c2ccccc2)cc2c(c1OC)OCO2.[I-]", "target or system": "OVCAR-3", "assay": "SRB", "measurement": "TGI", "result": "-4.74 log M"}
{"SMILES": "CC(=O)c1c(C)c2cnc(Nc3ccc(C4CCN(CCS(C)(=O)=O)CC4)cn3)nc2n(C2CCCC2)c1=O", "assay": "RECIST v1.1", "system": "HR+/HER2- advanced breast cancer patients", "conditions": "100 mg twice daily, phase Ib monotherapy arm", "measurement": "best response partial response", "result": "6.7%"}
